Experimental data gathered from unrelated publications.
Each line is one published result; not all experiments were run side by side. Values joined by “and” are separate records of one study, mostly repeats; a detail may differ.
Cell line: Vero

Compound	read-out	method	matrix	tested at	time	quantity	result
O=C1CCCCN1c1ccc(CO[C@@H]2COc3nc([N+](=O)[O-])cn3C2)cc1F	cytotoxicity	–	–	–	–	IC50	> 100 µg/mL
COc1cc(C2C(C#N)=C(N)Oc3c2c(C)nn3-c2ccc(Cl)cc2)cc(OC)c1OC (stereo not drawn)	–	MTT	–	25 µM	–	viability	59.3%
Cc1cc(NC(=O)c2cc3c(=O)n4cccc(C)c4nc3n2C)ccc1Br	–	MTT	–	100 µM	24 (unit not given)	viability	52.1%
Cc1nn(-c2ccc(Cl)cc2)c2c1C(c1c(Cl)cccc1Cl)C(C#N)=C(N)O2 (stereo not drawn)	–	MTT	–	100 µM	–	viability	48.9%
Nc1nc(CCc2ccccc2)c(Br)c(=O)[nH]1	cell morphology alteration	–	–	–	–	minimum cytotoxic concentration	> 100 µM
CCc1ccc(NC(=O)c2cc3c(=O)n4ccccc4nc3n2C)cc1	–	MTT	–	25 µM	24 (unit not given)	viability	63.2%
N#C[Se]CC1Cc2cc(Oc3cccc(F)c3)ccc2O1 (racemic)	cell viability	AlamarBlue	–	–	–	EC50	> 10 µM
Cc1nn(-c2ccc(Cl)cc2)c2c1C(c1ccc(F)cc1F)C(C#N)=C(N)O2 (stereo not drawn)	–	MTT	–	25 µM	–	viability	54.4%
Cc1ccc(NC(=O)c2cc3c(=O)n4cccc(C)c4nc3n2C)cc1Cl	–	MTT	–	25 µM	24 (unit not given)	viability	57%
CC(C)C[C@H](NC(=O)[C@H](C)NC(=O)[C@@H](NC(=O)[C@H](CCCNC(=N)N)NC(=O)[C@H](CC(C)C)NC(=O)[C@H](Cc1c[nH]c2ccccc12)NC(=O)[C@@H]1CCCN1C(=O)[C@@H](N)CCCCN)C(C)C)C(=O)N[C@@H](CS)C(=O)N1CCC[C@H]1C(=O)NCC(=O)O	–	WST-1	–	16 µM	24 h	viability	99.7% and 76.5% and 103%
N#C[Se]CC1Cc2c(Oc3ccc(F)cc3)cccc2O1 (racemic)	cell viability	AlamarBlue	–	–	–	EC50	> 10 µM
CC(=O)c1cccc(NC(=O)c2cc3c(=O)n4ccccc4nc3n2C)c1	–	MTT	–	1.6 µM	24 (unit not given)	viability	81.1%
CCCCc1nc(N)[nH]c(=O)c1Br	cell morphology alteration	–	–	–	–	minimum cytotoxic concentration	> 100 µM
Cc1nn(-c2ccc(Cl)cc2)c2c1C(c1ccc(I)cc1)C(C#N)=C(N)O2 (stereo not drawn)	–	MTT	–	25 µM	–	viability	58.8%
O=C1COCCN1c1ccc(CO[C@@H]2COc3nc([N+](=O)[O-])cn3C2)cc1	cytotoxicity	–	–	–	–	IC50	> 100 µg/mL
CC[C@@H](C)[C@H]1O[C@@H](c2c(O)c(-c3ccccc3)cn(OC)c2=O)[C@H](C)C[C@@H]1C	cytotoxicity	neutral red uptake	–	–	48 h	IC50	> 10 µg/mL
O=C(Nc1ccccc1F)c1cc2c(=O)n3ccccc3nc2n1Cc1ccccc1	–	MTT	–	6.3 µM	24 (unit not given)	viability	60.6%
N#Cc1cn([C@@H]2O[C@H](COCc3ccccc3)[C@@H](OCc3ccccc3)[C@H](OCc3ccccc3)[C@H]2I)c(=O)[nH]c1=O	–	MTT	DMEM with 10% FBS	–	72 h	CC50	> 50 µM
Nc1ncnc2c1ncn2C[C@H](O)CO	cell morphology alteration	–	–	–	–	minimum cytotoxic concentration	> 250 µM
Cc1nn(-c2ccc(Cl)cc2)c2c1C(c1ccc(Cl)cc1Cl)C(C#N)=C(N)O2 (stereo not drawn)	–	MTT	–	100 µM	–	viability	46%
Cn1c(C(=O)Nc2ccc(Cl)cc2)cc2c(=O)n3ccccc3nc21	–	MTT	–	1.6 µM	24 (unit not given)	viability	84.8%

Some of these lines once more:
Compound	read-out	method	matrix	tested at	time	quantity	result
Cc1nn(-c2ccc(Cl)cc2)c2c1C(c1ccc(F)cc1F)C(C#N)=C(N)O2 (stereo not drawn)	–	MTT	–	25 µM	–	viability	54.4%
Cc1ccc(NC(=O)c2cc3c(=O)n4cccc(C)c4nc3n2C)cc1Cl	–	MTT	–	25 µM	24 (unit not given)	viability	57%
